Measurements pooled from the literature.
Lines come from different studies, so protocols differ. Several values in a cell are separate wells, animals, samples, runs or records. Numbers after ± are the reported error.
Voltage-dependent P/Q-type calcium channel subunit alpha-1A: Voltage-dependent P/Q-type calcium channel subunit alpha-1A (Homo sapiens, UniProt O00555)
UCHL1: Ubiquitin carboxyl-terminal hydrolase isozyme L1 (UCHL1, Homo sapiens, UniProt P09936)
TOP2B: DNA topoisomerase 2-beta (TOP2B, Homo sapiens, UniProt Q02880)
BEST1: BEST1 (Homo sapiens, UniProt O76090)
ADRA2C: Alpha-2C adrenergic receptor (ADRA2C, Homo sapiens, UniProt P18825)

SMILES | target | assay | system | conditions | scale | endpoint | value
CCc1cnn2c(NCc3ccc[n+]([O-])c3)cc(N3CCCC[C@H]3CCO)nc12 | Bromodomain-containing protein 4 (BRD4, Homo sapiens, UniProt O60885) | 19F NMR, measured: tyrosine 119 |  | 94 µM | relative to: free protein | chemical shift change | -0.037 ppm
Cc1cc2c(NC(=O)c3cccc(C(=O)O)c3)cccc2nn1 | Bromodomain-containing protein 4, BD1 (BRD4, Homo sapiens, UniProt O60885) | binding, BROMOscan competition binding |  |  | relative to: Kd CBP over Kd BRD4 bromodomain 1 | selectivity ratio | 0.03
C#CCCC1(CC[C@H](NC(=O)NCCCCCCNC(=O)NCCNC(=O)COc2cccc([C@@H](CCc3ccc(OC)c(OC)c3)OC(=O)[C@@H]3CCCCN3C(=O)C(=O)C(C)(C)CC)c2)C(N)=O)N=N1.O=C(O)C(F)(F)F | Peptidyl-prolyl cis-trans isomerase FKBP1A (FKBP1A, Homo sapiens, UniProt P62942) | photoaffinity labeling, in-gel fluorescence, measured: Alexa Fluor 647 click label |  | 0.016 µM, UV irradiation 365 nm | higher = more labeling | probe labeling fluorescence | 586 a.u.
NCCCS(=O)(=O)O | Sodium- and chloride-dependent taurine transporter (SLC6A6, Homo sapiens, UniProt P31641, Y138A) | binding, microscale thermophoresis |  | 250 µM, room temperature, together with: 50 nM labelled protein | higher = more binding | normalised MST signal | 0.74
CN(C)CCOC1=Cc2ccccc2Sc2ccc(Cl)cc21 | Voltage-dependent P/Q-type calcium channel subunit alpha-1A | ion current, antagonist, automated patch clamp |  |  |  | IC30 | 2.71 µM
Cc1ccc(NC(=O)C(C#N)=Cc2cccc(C(F)(F)F)c2)c(C)c1 | UCHL1 | covalent, intact protein LC-MS |  | 12.5 µM |  | labelling | 26.7%
O=C(Nc1cccc2c(=O)cc(-c3nnn[nH]3)oc12)c1ccc(OCCCCc2ccccc2)cc1 | Volume-regulated anion channel subunit LRRC8C, part LRRC8A IL1 chimera (LRRC8C, Homo sapiens, UniProt Q8TDW0) | ion current, inhibitor, whole-cell patch clamp | HCT116 LRRC8 knockout, transfected | +100 mV, hypotonic swelling, normal ionic strength |  | Hill coefficient | 1.08
O=C(O)c1ccc(Nc2ncc3c(n2)-c2ccc(Cl)cc2C(c2c(F)cccc2F)=NC3)cc1 | EphA7(h) | kinase activity |  | 1 µM |  | remaining activity | 67%
N#Cc1c(NC(=O)C=CC(=O)O)sc2c1CCC2 | UCHL1 | covalent, intact protein LC-MS |  | 12.5 µM |  | labelling | 28.3%
Cc1nc(CSc2nc(SCc3ccc(C(C)C)cc3)nc(=O)[nH]2)cs1 | TOP2B | decatenation |  | 15.6 µM, replicate 2 |  | decatenated DNA | 100%
C=CC(=O)N1CCC[C@@H](n2nc(-c3ccc(Oc4ccccc4)cc3)c3c(N)ncnc32)C1 | Ephrin type-A receptor 7 (EPHA7, Homo sapiens, UniProt Q15375) |  |  | 10 µM |  | remaining activity | 60.4%
Nc1nc2c(ncn2[C@@H]2O[C@H](COP(=O)(O)O)[C@@H](O)[C@H]2O)c(=O)[nH]1 | GUK1 (Homo sapiens, UniProt Q16774, R148A) | enzyme activity, NADH-coupled |  | 2000 µM |  | reaction rate | 1.1 s⁻¹ and 0.71 s⁻¹ and 1.68 s⁻¹
Cn1ncc(S(=O)(=O)NCc2ccc(S(=O)(=O)N3CCOCC3)cc2)c1C(=O)O | malate dehydrogenase | enzyme activity, inhibitor |  | 200 µM, pH 7.0, 1% DMSO, aggregation counter-screen |  | remaining activity | 90%
O=C(O)c1ccc(O)cc1 | BEST1 | whole-cell patch clamp | HEK293 transiently expressing channel | concentration not given, membrane potential -80 mV |  | current density | -32.8 pA/pF and -24 pA/pF and -17 pA/pF and -33.2 pA/pF and -29.2 pA/pF and -31.8 pA/pF and -18.5 pA/pF
COc1ccc(C)cc1CN1CCC(c2cc3ncccc3cn2)CC1 | Catenin beta-1, residues 141-305 (CTNNB1, Homo sapiens, UniProt P35222) | ITC |  | concentration not given, 25 °C |  | binding stoichiometry | 1.33
COc1cc(C=C(C#N)C(=O)NC(C)C)cc(OC)c1 | UCHL1 | covalent, intact protein LC-MS |  | 12.5 µM |  | labelling | 13.6%
O=C(O)c1ccc([N+](=O)[O-])cc1 | BEST1 | whole-cell patch clamp | HEK293 transiently expressing channel | concentration not given, membrane potential -60 mV |  | current density | -24.6 pA/pF and -58.5 pA/pF and -59.5 pA/pF and -73.3 pA/pF and -41.8 pA/pF and -25.2 pA/pF and -42.4 pA/pF
COc1ccccc1-c1n[nH]c2nc(N[C@H]3CC[C@H](NS(=O)(=O)CCCOCCOCCNC(=O)OC(C)(C)C)CC3)ncc12 | Leishmania donovani MPK (LinJ.36.0780/LinJ.11.0060) | resin binding competition | promastigote lysate | 10 µM | relative to: DMSO | log2 SILAC ratio heavy/light | 1.71
CN(C)CCCN1c2ccccc2Sc2ccc(Cl)cc21 | Voltage-dependent P/Q-type calcium channel subunit alpha-1A | ion current, antagonist, automated patch clamp |  |  |  | IC30 | 2.37 µM
N=c1c[n+](N2CCOCC2)[n-]o1 | NAD-dependent protein deacetylase sirtuin-2 (SIRT2, Homo sapiens, UniProt Q8IXJ6) | covalent inactivator, HPLC demyristoylase |  | pH 7.5, 37 °C, peroxynitrite donor, time-dependent, together with: NAD+ |  | KI | 12 ± 4 µM
Cc1cc(Oc2ncccc2CN2CCN(c3ccc(F)cc3F)CC2)ccc1-c1c(C)c(=O)[nH]c(=O)n1C | ADRA2C | binding, radioligand binding |  | together with: [3H]rauwolscine | relative to: Ki alpha2A over Ki alpha2C | selectivity ratio | 4
Oc1ccc(/C=C/c2cc(O)cc(O)c2)cc1 | O-methyltransferase (Sorghum bicolor, UniProt A0A1B6PFV1) |  |  | together with: adenosine 1 mM |  | cooperativity factor | 3.46

SMILES | target | assay | system | conditions | scale | endpoint | value
CC(=O)N1CCc2c(NS(=O)(=O)c3cccc(Cl)c3O)cccc21 | malate dehydrogenase | enzyme activity, inhibitor |  | 200 µM, pH 7.0, 1% DMSO, aggregation counter-screen |  | remaining activity | 86%
CCC(C)(C)C(=O)O[C@H]1C[C@@H](C)C=C2C=C[C@H](C)[C@H](CC[C@@H]3C[C@@H](O)CC(=O)O3)[C@H]21 | Voltage-dependent P/Q-type calcium channel subunit alpha-1A | ion current, antagonist, automated patch clamp |  |  |  | IC30 | 1.58 µM
COc1cc(F)c(NS(=O)(=O)c2cc(Cl)ccc2O)cc1OC | malate dehydrogenase | enzyme activity, inhibitor |  | 200 µM, pH 7.0, 1% DMSO, aggregation counter-screen |  | remaining activity | 97%
CCCCCCCC/C=C\CCCCCCCC(=O)O | uncharacterized protein (Marinitoga piezophila, UniProt H2J7C1) | substrate, GC-FID |  | pH 6.0, 20 °C, 5% ethanol, 50 mM NaCl |  | Km | 190 ± 59.2 µM
Nc1ncnc2c1ncn2[C@@H]1O[C@H](COP(=O)(O)OP(=O)(O)OP(=O)(O)O)[C@@H](O)[C@H]1O | P2X purinoceptor 1 (P2RX1, Homo sapiens, UniProt P51575) | ion current, agonist, two-electrode voltage clamp | Xenopus oocytes | concentration-response curve |  | Hill slope | 1
Cc1cnn(C(=O)N2CCN(Cc3ccc(OCc4ccccc4)cc3)CC2)c1 | Fatty-acid amide hydrolase 1 (Faah, Rattus norvegicus, UniProt P97612) | inhibitor |  | 5 nM, pH 9, 25 °C |  | time to maximal inhibition | ~3 h
O=c1nc(SCc2cc(F)cc(C(F)(F)F)c2)nc(SCc2ccc3nc(Cl)ccc3c2)[nH]1 | TOP2B | decatenation |  | 15.6 µM, replicate 1 |  | decatenated DNA | 79.3%
C#CC(C)(CC)NS(=O)(=O)c1ccc(OCC)c(C)c1 (stereo not shown) | UCHL1 | covalent, intact protein LC-MS |  | 12.5 µM |  | labelling | 11.9%
O=P(O)(O)OC[C@H](O)CO (racemic) | uncharacterized protein (Pelagibacter ubique, UniProt Q4FMG4) | differential scanning fluorimetry | Candidatus Pelagibacter ubique | in-house screen |  | thermal shift | 2.13 °C
Cc1ccnc([18F])c1-c1cccc(N2C[C@H](N3CCN(C(=O)c4nccs4)CC3)CC2=O)c1 | Monoglyceride lipase (Macaca mulatta, UniProt H9ESL3) | PET Scatchard plot | rhesus monkey, brain HIP | baseline |  | Bmax | 32.9 nmol/g
c1coc(-c2n[nH]cc2-c2ccnc3ccccc23)c1 | Serine/threonine-protein kinase BUR1 (CRK1, Candida albicans, UniProt Q9Y7W4) | kinase binding, MIB/MS competition | Candida albicans lysate | 1 µM | relative to: DMSO, negative = stronger binding | log2 fold change | 0.13
CC1=C(/C=C/C(C)=C/C=C/C(C)=C/C=C/C=C(C)/C=C/C=C(C)/C=C/C2=C(C)CCCC2(C)C)C(C)(C)CCC1 | Beta-lactoglobulin (LGB, Bos taurus, UniProt P02754) | intrinsic fluorescence |  | 298 K | relative to: protein alone | fluorescence decrease | 36.4%
CC[C@@H](C)[C@@H](NC(=O)[C@@H](Cc1ccc(O)cc1)NC(=O)[C@H]1CCCN1C(=O)[C@@H](CCCNC(=N)N)NC(=O)[C@H](N)Cc1c[nH]cn1)C(=O)N[C@H](C)C(=O)N[C@H](Cc1c[nH]cn1)C(=O)N[C@H](CCCNC(=N)N)C(=O)N[C@@H](C(=O)N[C@H](Cc1ccc(O)cc1)C(=O)N[C@H](CO)C(=O)N[C@H](Cc1ccccc1)C(N)=O)C(C)C | Transferrin receptor protein 1 (Tfrc, Mus musculus, UniProt Q62351) | flow cytometry | RAW264.7 | 2 h, pH 6, replicate 1, unit not given | relative to: 0 h | surface TFRC expression | 0.903
Cc1cc(Oc2ncccc2CN2CCN(c3cccc(Cl)c3)CC2)ccc1-c1c(C)c(=O)[nH]c(=O)n1C | ADRA2C | binding, radioligand binding |  | together with: [3H]rauwolscine | relative to: Ki alpha2B over Ki alpha2C | selectivity ratio | 6
C=CC(=O)N1CCC(C(=O)N[C@H](C)c2ccc3c(c2)CCCC3)CC1 | UCHL1 | covalent, intact protein LC-MS |  | 12.5 µM |  | labelling | 7.94%
CCN(c1ccccc1)S(=O)(=O)c1ccc(Cl)c(C(=O)Nc2ccccc2N2CCC(C)(C)C2=O)c1 | N-myristoyltransferase (Cryptosporidium parvum, UniProt Q5CV46) | enzyme activity, inhibitor |  |  | relative to: HsNMT1 IC50 over target IC50 | selectivity ratio | > 9 fold
Cc1nn(C)c(C)c1CN(C(=O)CCl)C1CCCCC1C (stereo not shown) | UCHL1 | covalent, intact protein LC-MS |  | 12.5 µM |  | labelling | 7.97%
Cc1ccccc1C1CC(=O)c2c(C)nc(N)nc2C1 (stereo not shown) | Leucine-rich repeat serine/threonine-protein kinase 2, WD40 domain (LRRK2, Homo sapiens, UniProt Q5S007) | binding, affinity selection mass spectrometry |  |  | relative to: other proteins in batch | log fold enrichment | 0.261
O=S(=O)(Nc1ccc(F)c2cnccc12)c1cc(Cl)cc(Cl)c1O | malate dehydrogenase | enzyme activity, inhibitor |  | 200 µM, pH 7.0, 1% DMSO, aggregation counter-screen |  | remaining activity | 88%
Nc1ncnc2c1ncn2[C@@H]1O[C@H](COP(=O)(O)CP(=O)(O)OP(=O)(O)O)[C@@H](O)[C@H]1O | P2X purinoceptor 1 (P2RX1, Homo sapiens, UniProt P51575, F188L) | calcium influx |  | 10 nM | relative to: ionomycin response | calcium influx | 0% and 2.68% and 3.28%
COc1ccc(S(=O)(=O)n2nc(SCc3ccc(Cl)cc3)nc2N)cc1 | Lysophospholipase-like protein 1 (Mus musculus, UniProt Q3UFF7) | enzyme activity, activator, gel-based ABPP | purified protein | concentration not given, together with: FP-rhodamine | relative to: DMSO | probe labeling increase | 2.4 fold

For quick reference, copied from above:
SMILES | target | assay | system | conditions | scale | endpoint | value
O=C(O)c1ccc(O)cc1 | BEST1 | whole-cell patch clamp | HEK293 transiently expressing channel | concentration not given, membrane potential -80 mV |  | current density | -32.8 pA/pF and -24 pA/pF and -17 pA/pF and -33.2 pA/pF and -29.2 pA/pF and -31.8 pA/pF and -18.5 pA/pF
COc1ccc(C)cc1CN1CCC(c2cc3ncccc3cn2)CC1 | Catenin beta-1, residues 141-305 (CTNNB1, Homo sapiens, UniProt P35222) | ITC |  | concentration not given, 25 °C |  | binding stoichiometry | 1.33
COc1cc(C=C(C#N)C(=O)NC(C)C)cc(OC)c1 | UCHL1 | covalent, intact protein LC-MS |  | 12.5 µM |  | labelling | 13.6%
O=C(O)c1ccc([N+](=O)[O-])cc1 | BEST1 | whole-cell patch clamp | HEK293 transiently expressing channel | concentration not given, membrane potential -60 mV |  | current density | -24.6 pA/pF and -58.5 pA/pF and -59.5 pA/pF and -73.3 pA/pF and -41.8 pA/pF and -25.2 pA/pF and -42.4 pA/pF
COc1ccccc1-c1n[nH]c2nc(N[C@H]3CC[C@H](NS(=O)(=O)CCCOCCOCCNC(=O)OC(C)(C)C)CC3)ncc12 | Leishmania donovani MPK (LinJ.36.0780/LinJ.11.0060) | resin binding competition | promastigote lysate | 10 µM | relative to: DMSO | log2 SILAC ratio heavy/light | 1.71
